Measurements gathered from unrelated publications.
Numbered parts are unrelated; each lists some results of a single study. Substitutions count along the parent as printed.

Block 1
Target: Protein max, full length (MAX, Homo sapiens, UniProt P61244-2, residues 1-151)
Technique: protein-binding microarray
Molecule type: double-stranded DNA, one strand shown
Medium: in vitro
Tested at: not given
Notes: k-mer, scored over probes, only values ≥0.25
Direction: higher = stronger binding
Measurement: E-score
CGTGCTAA: 0.338
AACGAGGA: 0.29
CACACGCA: 0.319
TAACGTGA: 0.332
AGCATGTA: 0.372
AGGGTGGG: 0.266
GTGTAGCA: 0.302
CATGGCCC: 0.33
ATGCGTCA: 0.347
CCGTGTCA: 0.313
AGCCGCAT: 0.296
CACGCTTA: 0.393
AATGTGAC: 0.33
CACGTTAA: 0.314
AAGGCCAC: 0.259
CGTCGTGC: 0.258
CACCACGC: 0.423
TGTGACAA: 0.268
AGAACACG: 0.39

Block 2
Target: Interferon regulatory factor 7, full length, phosphomimetic (IRF7, Homo sapiens, UniProt Q92985, residues 1-503, S101K/S471D/S472D/S475D/S476D/S477D/S483D/S484D/S487D)
Technique: protein-binding microarray
Molecule type: double-stranded DNA, one strand shown
Medium: in vitro
Tested at: 250 nM
Notes: 60-bp whole probe
Added: salmon DNA 0.4 mg/ml
Reference: random background probes
Direction: higher = stronger binding
Measurement: log fluorescence
All sequences stand within: GCCTAGCAC … GTCTTGATTCGCTTGACGCTGCTG
Construct (chain): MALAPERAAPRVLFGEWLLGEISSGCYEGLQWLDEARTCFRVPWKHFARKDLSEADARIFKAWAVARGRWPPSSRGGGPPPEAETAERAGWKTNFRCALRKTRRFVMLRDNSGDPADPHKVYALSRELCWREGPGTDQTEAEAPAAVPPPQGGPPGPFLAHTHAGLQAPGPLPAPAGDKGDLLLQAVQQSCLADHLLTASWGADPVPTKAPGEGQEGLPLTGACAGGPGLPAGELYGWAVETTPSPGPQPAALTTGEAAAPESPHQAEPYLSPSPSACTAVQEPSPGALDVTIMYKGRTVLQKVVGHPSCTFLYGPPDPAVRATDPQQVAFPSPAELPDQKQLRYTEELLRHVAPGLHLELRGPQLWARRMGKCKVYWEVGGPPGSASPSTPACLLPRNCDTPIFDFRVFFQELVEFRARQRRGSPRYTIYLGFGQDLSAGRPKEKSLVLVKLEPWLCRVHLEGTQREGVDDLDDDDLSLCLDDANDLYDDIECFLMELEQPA
TTAGGTTTCCTTTTCCTTTAGTGCTAG: 6.53 z-score
CTCATTCTCCACTTGTGTTTGTGCTAG: 1.79 z-score
GACGGTCTCGTTATCCTGACGTGCTAG: 3.43 z-score
GACGATATCGTGTTTCGAGACGTGCTA: 0.877 z-score
GACGGTTTCCTACTGATGACGTGCTAG: 1.38 z-score
TTAGGACTGCTTTACCTTTAGTGCTAG: 1.8 z-score
GAAGCCCTCCCTGTGGGGGGGTGCTAG: 1.53 z-score
TTATATTTCAGACTGGATTAGTGCTAG: 0.665 z-score
AAATGATTGGTTGAACATGAGTGCTAG: -0.405 z-score
TCATTTCTCAACCATTTTACTGTGCTA: 2.16 z-score
TTAGGTCTCGGTCTAGGTTAGTGCTAG: 1.09 z-score
TCATTTTCCTACATCAGACTGTGCTAG: 2.52 z-score
TTAGATTCCGGGACTGGATTAGTGCTA: 0.543 z-score
TTAGGTGTCGGTCTCGGTTAGTGCTAG: 0.836 z-score
GACGGACTGCTTCTCCTGATGTGCTAG: -0.455 z-score
GACGCTTTCAGTATCGAGACGTGCTAG: 0.888 z-score
TTAAGTATCCTTCTCCTTTAGTGCTAG: 0.874 z-score
GACGGTTCCGGTTCCGGGACGTGCTAG: 3.1 z-score
TCATTTTTTTATTTATAACTGTGCTAG: 1.06 z-score
GACGAACTGAGTATTGAGACGTGCTAG: -0.161 z-score
TCATATTCATATATATAACTGTGCTAG: 0.95 z-score
TCATCTCTGAAGACTCTCACTGTGCTA: 0.379 z-score
CTAGGTATCGGACTGGGTTAGTGCTAG: 0.739 z-score
TTAGGACTGCTTAACCTTTAGTGCTAG: 0.21 z-score
TTAGGTTCCGGGTTTCGGTTAGTGCTA: 8.39 z-score

Block 3
Target: RNA binding protein fox-1 homolog 2, RRM domain, GST-SBP tag (RBFOX2, Homo sapiens, UniProt O43251-10, residues 100-194)
Technique: RNA Bind-n-Seq
Molecule type: RNA
Medium: in vitro
Tested at: 365 nM
Notes: natural RNA segment, single round, ends assumed
Reference: no-protein control
Direction: higher = stronger binding
Measurement: RBNS enrichment (R)
Target sequence (chain): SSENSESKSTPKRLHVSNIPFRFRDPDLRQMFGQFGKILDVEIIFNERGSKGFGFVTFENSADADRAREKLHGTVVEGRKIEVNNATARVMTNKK
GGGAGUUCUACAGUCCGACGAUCACCCACUUCAGCUGGCUUUGGGGAAAGGGGCAUCAAAUUCAGCCUGCCCCAAGGUUGUCAGAGUCAAGUCUGGGAGCAGAAAAGGGGUGAGUUUUCACAUCCCUGCAUCUUGGAAUUCUCGGGUGCCAA: 0.252
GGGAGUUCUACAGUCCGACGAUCAGCUGAGAAUUUAAACCUAUUAUUGUUAUAAUGAAAGAAUGACAUUUAUGCUUUGAAAGCUCUCGAGUUGUUAAAGAAAAUGUAUAUCUCGAAUAGAGAAGGGGAAACUCUGGAAUUCUCGGGUGCCAA: 0.33
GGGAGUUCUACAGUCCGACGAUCCUACAGCUCCAUCAAAACCUUUCAUUCACUGCCAAUGAGGAGCACUUUCUUUCUGUAGCAUAGCUUCUGUCUCAGAUGCCCCAGCAAAUAAAUGCUGUCUCUUAUUGGUCUGGAAUUCUCGGGUGCCAA: 0.357
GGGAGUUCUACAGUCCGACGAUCGAAAUAUGGAUAGUUGUGGCCACCUGCUGACUAUUUGUGGUUUAAAAUAAAAAGGUUUUCUUGUCUGAAAAUAUCCACCUGUUUGUGUCUUUACUAAAUGUAAGAAGUGAUGGAAUUCUCGGGUGCCAA: 0.784
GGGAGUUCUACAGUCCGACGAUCGACUCUUCUAUGCUCCUGUUGGUUUACAAGCCACCAAGAAUGUCAGUGUUGAGAAUACGGCCUGGUAAAAUGGGAGAUGUAAAAUGACUAAAUGAAAGGAAGGGUAGUUUUGGAAUUCUCGGGUGCCAA: 0.49
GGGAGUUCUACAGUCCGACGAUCCUGUUCUCCUCCCCAAGUCGGCACCCUUUAACUCAUGAGGAGGGAAAAGAGUGCCUAAGCGGGGGUGAAAGAGGACGUGUUACCCACUGCCAUGCACCAGGACUGGCUGUUGGAAUUCUCGGGUGCCAA: 0.37
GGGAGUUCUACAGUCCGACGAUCUACCUAAGGGGUUACUUGUUUAAUGGGAUGGCAUUGACUUUUUGAAAAUCAAGUGGACUGAGUCAUUGAUAAAACAUUUCUAAGAGUGGGGCUAGAGAACAUACUUUACAUGGAAUUCUCGGGUGCCAA: 0.88
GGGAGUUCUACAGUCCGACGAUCUGUGGUUGACAAUUCUGUAUUGACUAAAGGCAAUAUUGUCACCUGUCUCAUUAAAAAUUAGUUUCCAGUUAGGCAGAUGAAUAACACUAUUAAAAAUGCACCCAGUUUUGUGGAAUUCUCGGGUGCCAA: 0.47
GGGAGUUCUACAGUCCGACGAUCGGGCUACUUCAGGCCCUUCUGUGUGUUGCCUGGCAGGAUACCUUGUCCAACCAGCUACCCACCUCAACUCCCCUGUAGUUUAGGACACAAAACAGCUACCAGCGGUACAGUGGAAUUCUCGGGUGCCAA: 0.22
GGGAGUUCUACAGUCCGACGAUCUAUUAUGUGAAUGCUACAUUUGUUCUGAACACUUAGGGGCUGCAAAAAUGUAAUAAGAAAUGCAUAUGACUAGAUAGCAAUAGUGUUUUUUUUAGAUGGUAUGCUCUUGAUGGAAUUCUCGGGUGCCAA: 0.669
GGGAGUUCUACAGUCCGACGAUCGGCCUCCUCGGGUGCCUGUGGUGGUCCACCUGGUGCACAGACAAACACCCAAUACACACAAAACAAAAGUAACUCAAGAAUAGCCUGGGCUACAUAGCAAGAGCCUGUCUUGGAAUUCUCGGGUGCCAA: 0.518
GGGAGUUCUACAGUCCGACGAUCUUGACGGGCACUUGGAGGAGGAGCUGACUGUGUGUGUACCAGCUUCACUGGGAUGUGUUUCCCCAGUCAAGGAACAGGGGAUCUUCAGAGUCAUGAAUGUUUUCUUGCCAUGGAAUUCUCGGGUGCCAA: 0.799

Block 4
Target: Sal-like protein 4, full length isoform A (SALL4, Homo sapiens, UniProt Q9UJQ4, residues 1-1053)
UniProt Q9UJQ4, sequence (whole entry, looked up): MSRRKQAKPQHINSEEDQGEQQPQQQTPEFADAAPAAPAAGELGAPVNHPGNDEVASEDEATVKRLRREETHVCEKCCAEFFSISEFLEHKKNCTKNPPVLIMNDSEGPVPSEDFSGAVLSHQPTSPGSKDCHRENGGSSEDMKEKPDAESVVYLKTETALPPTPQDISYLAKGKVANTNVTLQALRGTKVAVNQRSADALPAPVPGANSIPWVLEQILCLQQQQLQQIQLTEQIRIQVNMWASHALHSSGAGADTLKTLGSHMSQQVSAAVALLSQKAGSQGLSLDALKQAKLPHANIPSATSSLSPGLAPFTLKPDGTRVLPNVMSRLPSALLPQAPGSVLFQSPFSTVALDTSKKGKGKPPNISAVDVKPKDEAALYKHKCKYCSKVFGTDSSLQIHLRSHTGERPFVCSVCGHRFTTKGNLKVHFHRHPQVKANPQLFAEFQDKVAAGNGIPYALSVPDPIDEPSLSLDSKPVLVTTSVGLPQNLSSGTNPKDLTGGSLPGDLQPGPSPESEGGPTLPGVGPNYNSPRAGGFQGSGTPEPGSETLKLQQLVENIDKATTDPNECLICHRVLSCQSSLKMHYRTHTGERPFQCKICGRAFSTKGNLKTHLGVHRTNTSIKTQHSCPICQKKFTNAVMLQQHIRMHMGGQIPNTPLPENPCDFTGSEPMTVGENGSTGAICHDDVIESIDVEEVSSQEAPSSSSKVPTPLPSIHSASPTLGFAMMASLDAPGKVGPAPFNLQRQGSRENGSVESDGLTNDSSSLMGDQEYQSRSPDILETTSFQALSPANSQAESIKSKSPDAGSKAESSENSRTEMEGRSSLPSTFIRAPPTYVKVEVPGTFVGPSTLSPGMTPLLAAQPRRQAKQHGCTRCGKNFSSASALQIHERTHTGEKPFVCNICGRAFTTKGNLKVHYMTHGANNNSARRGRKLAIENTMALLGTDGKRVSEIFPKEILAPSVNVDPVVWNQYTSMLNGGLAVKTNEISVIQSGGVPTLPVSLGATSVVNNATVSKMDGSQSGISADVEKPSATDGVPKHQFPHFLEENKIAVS
Technique: universal PBM
Molecule type: double-stranded DNA, one strand shown
Medium: in vitro
Tested at: 600 nM
Notes: 8-mer, flanks averaged, mean of replicates
Direction: higher = stronger binding
Measurement: E-score
GAAGCGAC: -0.178
AGTCTTCG: -0.0453
AAGCTTTA: 0.153
CGTTATCC: 0.0474
AGTGTCTC: -0.236
CCTTCCCA: -0.173
CGGTCGCC: -0.282
AGGATAGC: -0.108
AGAAGGTG: 0.0973
CAGACGGC: -0.399
ACATACTG: 0.0473
TAGTGCGA: -0.0424
GGTGTGAA: 0.163
ATATCTTC: 0.311
AGGGGGGG: -0.361
CTAGGATA: 0.0555
AATCTCAC: -0.00239
GTGCCACA: -0.238
CAGGCGTC: -0.36
GCCTTTAA: 0.124
AGCCTATG: 0.0561
CAAAATCA: 0.189
ATTTGGGA: 0.124
GATAAGCC: -0.138

Block 5
Target: CCND1, cyclin fold, Cln2 fusion (human)
Technique: yeast growth competition, sequencing
Medium: yeast
Notes: weak parent motif
Reference: not given
Direction: higher = stronger binding
Measurement: normalised enrichment score
Starting sequence: PKMYT1 docking peptide (human); SFEPRNLLSLFED; partner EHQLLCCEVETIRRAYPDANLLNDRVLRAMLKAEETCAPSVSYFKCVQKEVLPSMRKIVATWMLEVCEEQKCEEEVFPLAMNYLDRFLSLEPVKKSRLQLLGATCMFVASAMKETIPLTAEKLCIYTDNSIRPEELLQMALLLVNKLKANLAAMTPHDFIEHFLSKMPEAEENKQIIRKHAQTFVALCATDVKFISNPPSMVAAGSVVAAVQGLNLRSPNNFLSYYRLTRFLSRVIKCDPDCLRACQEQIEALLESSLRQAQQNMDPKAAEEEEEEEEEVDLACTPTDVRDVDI
SFTPRNLLSLFED [E3T]: 0.455
SFEPRNHLSLFED [L7H]: 0.918
SFEGRNLLSLFED [P4G]: 0.885
SFEPRNLRSLFED [L8R]: 1.08
SFEPRNLLSLVED [F11V]: 0.76
SFEPRNLLSLFYD [E12Y]: 1.11
SFEPRNYLSLFED [L7Y]: 1.1
SFEPRNLWSLFED [L8W]: 1.11
SKEPRNLLSLFED [F2K]: -0.0764
SFEPRNLLSVFED [L10V]: 0.285
SFEPRNLLYLFED [S9Y]: 1.62
SFRPRNLLSLFED [E3R]: -0.349
SIEPRNLLSLFED [F2I]: 0.397
SFEPRNLLDLFED [S9D]: 1.12
SFEPRNLLSLFEA [D13A]: 0.961
SFEPRNLLSLFEQ [D13Q]: 1.08

Block 6
Target: Histone acetyltransferase KAT6A, winged helix 1, GST fusion (KAT6A, Homo sapiens, UniProt Q92794, residues 1-85)
Technique: protein binding microarray
Molecule type: double-stranded DNA, one strand shown
Medium: in vitro
Tested at: not given
Notes: 8-mer, flanks averaged, mean of 2 arrays, mostly near background
Reference: not given
Direction: higher = stronger binding
Measurement: E-score
Target sequence (chain): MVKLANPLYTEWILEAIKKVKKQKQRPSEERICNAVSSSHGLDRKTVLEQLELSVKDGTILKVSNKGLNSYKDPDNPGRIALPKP
GGACCGTA: 0.236
CGAGGAAC: 0.148
AAAACTTC: -0.0776
AGTTTTGC: 0.0871
CGAACTAA: -0.191
GTACAGGA: -0.0779
ATATTATC: 0.0587
CTGTCAAA: -0.0798
CGGGTGGC: 0.283
ACGAAGGA: -0.131
CACCCCCC: 0.0349
GATTATCC: 0.0124
GAAGTTTA: -0.00649
TAGAAAGA: -0.119
CACGCCCA: -0.1
AGGCAATC: -0.223
AAGTAATT: -0.0944
CTAGAGGC: -0.0865
ATGTGAGA: -0.202
CCCAACAG: -0.257
CGAACTCG: -0.0901
ACACGAGG: -0.125
CGCACGCC: 0.299

Excerpt of the above (block 2):
AAATGATTGGTTGAACATGAGTGCTAG: -0.405 z-score
TCATTTCTCAACCATTTTACTGTGCTA: 2.16 z-score
TTAGGTCTCGGTCTAGGTTAGTGCTAG: 1.09 z-score
TCATTTTCCTACATCAGACTGTGCTAG: 2.52 z-score
TTAGATTCCGGGACTGGATTAGTGCTA: 0.543 z-score
TTAGGTGTCGGTCTCGGTTAGTGCTAG: 0.836 z-score
GACGGACTGCTTCTCCTGATGTGCTAG: -0.455 z-score
GACGCTTTCAGTATCGAGACGTGCTAG: 0.888 z-score
